Values quoted from earlier work that unrelated publications cite.
Compare with care: the assays were run in different laboratories. ± gives the spread as reported.
Sequence of UniProt Q12809 (whole entry, looked up): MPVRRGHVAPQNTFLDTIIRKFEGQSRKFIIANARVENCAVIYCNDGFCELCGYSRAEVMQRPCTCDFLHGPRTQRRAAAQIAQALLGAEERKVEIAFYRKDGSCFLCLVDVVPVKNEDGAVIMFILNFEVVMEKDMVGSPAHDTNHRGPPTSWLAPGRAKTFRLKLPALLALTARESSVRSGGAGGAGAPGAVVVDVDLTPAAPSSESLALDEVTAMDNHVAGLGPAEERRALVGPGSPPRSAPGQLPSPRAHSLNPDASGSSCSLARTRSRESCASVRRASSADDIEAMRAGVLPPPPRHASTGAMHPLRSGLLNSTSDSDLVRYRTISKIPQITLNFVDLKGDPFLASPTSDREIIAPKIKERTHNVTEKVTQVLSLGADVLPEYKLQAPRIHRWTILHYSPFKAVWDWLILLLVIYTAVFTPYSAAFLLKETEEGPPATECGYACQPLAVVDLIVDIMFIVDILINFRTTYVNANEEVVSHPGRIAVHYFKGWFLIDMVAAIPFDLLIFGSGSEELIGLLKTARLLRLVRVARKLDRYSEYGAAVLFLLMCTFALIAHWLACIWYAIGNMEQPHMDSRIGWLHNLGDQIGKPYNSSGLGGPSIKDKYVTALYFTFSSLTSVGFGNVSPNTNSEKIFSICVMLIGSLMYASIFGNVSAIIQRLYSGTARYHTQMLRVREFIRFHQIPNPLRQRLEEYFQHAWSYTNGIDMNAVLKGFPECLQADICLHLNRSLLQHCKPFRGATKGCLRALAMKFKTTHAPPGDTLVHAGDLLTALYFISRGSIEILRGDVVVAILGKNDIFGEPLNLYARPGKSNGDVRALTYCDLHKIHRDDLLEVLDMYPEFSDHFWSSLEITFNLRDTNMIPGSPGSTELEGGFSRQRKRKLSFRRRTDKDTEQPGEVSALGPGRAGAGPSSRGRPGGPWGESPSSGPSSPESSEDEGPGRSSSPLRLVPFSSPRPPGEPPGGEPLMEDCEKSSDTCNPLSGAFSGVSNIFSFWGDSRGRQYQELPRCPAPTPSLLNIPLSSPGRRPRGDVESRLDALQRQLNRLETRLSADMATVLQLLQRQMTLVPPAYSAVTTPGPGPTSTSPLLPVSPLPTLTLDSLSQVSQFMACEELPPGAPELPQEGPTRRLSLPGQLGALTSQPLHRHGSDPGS
Sequence of UniProt Q9UEE5 (whole entry, looked up): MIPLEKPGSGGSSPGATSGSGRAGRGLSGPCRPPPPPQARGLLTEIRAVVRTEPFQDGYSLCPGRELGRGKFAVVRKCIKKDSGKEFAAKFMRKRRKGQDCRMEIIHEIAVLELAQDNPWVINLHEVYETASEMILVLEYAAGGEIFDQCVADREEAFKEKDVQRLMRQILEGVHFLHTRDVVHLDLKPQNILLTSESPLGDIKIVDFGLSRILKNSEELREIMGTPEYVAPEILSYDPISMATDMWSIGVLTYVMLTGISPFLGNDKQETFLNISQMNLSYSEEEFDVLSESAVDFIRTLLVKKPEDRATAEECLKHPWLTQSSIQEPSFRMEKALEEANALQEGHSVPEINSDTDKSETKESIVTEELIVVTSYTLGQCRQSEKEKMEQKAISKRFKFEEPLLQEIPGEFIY

Structure (SMILES) | target or system | test | test system | setting | how to read | measurement | value
COC[C@H]1C[C@@H](c2ncc(-c3ccc4c(c3)COc3cc5c(ccc6nc([C@@H]7CC[C@H](C)N7C(=O)[C@@H](NC(=O)OC)C(C)C)[nH]c65)cc3-4)[nH]2)N(C(=O)[C@H](NC(=O)OC)c2ccccc2)C1 | OATP1B3 (SLCO1B3) | inhibitor | – | literature value used in model | – | IC50 | 235 nM
O=S(=O)(O)C(F)(F)F | CYP2D6 | inhibitor | – | Tox21 screening | – | IC50 | 39900 ± 23000 nM
Cc1cc(C)c(CNC(=O)c2cc(Cl)c3c(c2C)O[C@@](C)([C@H]2CC[C@H](N(C)C)CC2)O3)c(=O)[nH]1 | P-glycoprotein | digoxin transport, inhibitor | Caco-2 monolayer | with: [3H]digoxin | – | IC50 | 18200 nM
COc1ccc(CCc2ccc(-c3c(C)[nH]c(C)c(Cl)c3=O)cc2)cc1 | Plasmodium falciparum | whole cell extended time | 3D7 | 72 h | – | IC50 | 20 nM
FC(F)(F)C(F)(F)C(F)(F)C(F)(F)C(F)(F)C(F)(F)C(F)(F)C(F)(F)Br | CYP3A4 | inhibitor | – | Tox21 screening | – | IC50 | inactive
CC(O)c1cc(C(=O)N[C@@H](C)Cn2ccc(-c3ccc(C#N)c(Cl)c3)n2)[nH]n1 (some centres unmarked) | BCRP (ABCG2) | inhibitor | – | literature maximum | – | IC50 | 1330 nM
CO/N=C(\C(=O)N[C@@H]1C(=O)N2C(C(=O)O)=C(CSc3nc(=O)c(=O)[nH]n3C)CS[C@H]12)c1csc(N)n1 | MRP2 | transport activity, inhibitor | – | – | – | IC50 | 110000 nM
CCNS(=O)(=O)C(F)(F)C(F)(F)C(F)(F)C(F)(F)C(F)(F)C(F)(F)C(F)(F)C(F)(F)F | CYP2C9 | inhibitor | – | – | – | IC50 | 1880 ± 470 nM
O=C1CCc2cc(OCCCCc3nnnn3C3CCCCC3)ccc2N1 | KCNH2 (Homo sapiens, UniProt Q12809) | inhibitor | – | – | – | IC50 | 13800 nM
FC1(F)C(F)(F)C(F)(F)C2(F)C(F)(F)C(F)(F)C(F)(F)C(F)(F)C2(F)C1(F)F (centres unmarked) | CYP2C9 | inhibitor | – | Tox21 screening | – | IC50 | inactive
CNCc1cn(S(=O)(=O)c2cccc(F)c2)c(-c2ccc(F)cc2F)c1OC | OAT3 | transporter uptake, inhibitor | – | – | – | IC50 | > 100000 nM
CCC(C)n1ncn(-c2ccc(N3CCN(c4ccc(OCC5COC(Cn6cncn6)(c6ccc(Cl)cc6Cl)O5)cc4)CC3)cc2)c1=O (centres unmarked) | BCRP (ABCG2) | inhibitor | – | literature maximum | – | IC50 | 10000 nM
Nc1cc(C(F)(F)F)c(-c2nc(N3CCOCC3)nc(N3CCOCC3)n2)cn1 | STK17A (Homo sapiens, UniProt Q9UEE5) | enzyme activity | – | 10 µM | baseline: untreated | remaining activity | 97%
C#Cc1cccc(Nc2ncnc3cc(OCCOC)c(OCCOC)cc23)c1 | ABCG2 | – | HEK293-ABCG2 | – | – | IC50 | 2500 nM
CNC(C)C1CCC(N)C(OC2C(N)CC(N)C(OC3OCC(C)(O)C(NC)C3O)C2O)O1 (centres unmarked) | Pseudomonas aeruginosa | – | clinical isolate RKI-No_82/10 | – | – | MIC | > 8 µg/mL
C[C@H]1COCCN1c1nc(-c2cnc(N)cc2C(F)F)nc(N2CCOCC2)n1 | Hs-578T | – | – | – | – | GI50 | 354 nM
C=C[C@@H]1C[C@]1(NC(=O)[C@@H]1C[C@@H]2CN1C(=O)[C@H](C(C)(C)C)NC(=O)O[C@@H]1C[C@H]1CCCCCc1nc3ccc(OC)cc3nc1O2)C(=O)NS(=O)(=O)C1CC1 | human BCRP (ABCG2) | – | – | literature geometric mean | – | IC50 | 12500 nM
CNC(=O)c1c(C)oc2cc(Oc3ncnc4cc(OC)c(OC)cc34)ccc12 | BCRP | transport, inhibitor | – | in vitro | – | IC50 | 1290 nM
Cc1cc(=O)c(-c2ccc(OCCSc3ccc(C(F)(F)F)cn3)cc2)c(C)[nH]1 | Plasmodium falciparum | whole cell extended time | 3D7 | 72 h | – | IC50 | 530 nM
N[C@@H]1c2cccnc2[C@H](OC(=O)N2CCC(n3c(=O)[nH]c4ncccc43)CC2)CC[C@H]1c1cccc(F)c1F | CYP2C9 (human) | – | human liver microsomes | – | – | IC50 | > 40000 nM
COc1cc(Nc2ncc(F)c(Nc3ccc4c(n3)NC(=O)C(C)(C)O4)n2)cc(OC)c1OC | BCRP (ABCG2) | inhibitor | – | literature minimum | – | IC50 | 31 nM
CC1(C)S[C@@H]2[C@H](NC(=O)[C@H](N)c3ccccc3)C(=O)N2[C@H]1C(=O)O | Pseudomonas aeruginosa | – | clinical isolate RKI-No_81/10 | – | – | MIC | > 16 µg/mL
CCCS(=O)(=O)Nc1ccc(F)c(C(=O)c2c[nH]c3ncc(-c4ccc(Cl)cc4)cc23)c1F | ABCG2 | – | MCF7-FLV1000 | – | – | IC50 | 1240 nM

For quick reference, copied from above:
Structure (SMILES) | target or system | test | test system | setting | how to read | measurement | value
CNC(C)C1CCC(N)C(OC2C(N)CC(N)C(OC3OCC(C)(O)C(NC)C3O)C2O)O1 (centres unmarked) | Pseudomonas aeruginosa | – | clinical isolate RKI-No_82/10 | – | – | MIC | > 8 µg/mL
